Measurements pooled from the literature.
A part holds a random share of what one study measured. Substitutions count along the parent as printed.

Study 1 — method: RNA Bind-n-Seq; molecule type: RNA; matrix: in vitro; tested at: 365 nM; reference: no-protein control; reading: higher = stronger binding
Target: RNA binding protein fox-1 homolog 2, RRM domain, GST-SBP tag (RBFOX2, Homo sapiens, UniProt O43251-10, residues 100-194)
Notes: natural RNA segment, single round, ends assumed
All sequences stand within: GGGAGUUCUACAGUCCGACGAUC … UGGAAUUCUCGGGUGCCAA
Residues (chain): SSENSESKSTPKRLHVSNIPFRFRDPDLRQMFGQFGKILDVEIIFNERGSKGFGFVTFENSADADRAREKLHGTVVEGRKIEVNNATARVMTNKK
| Sequence | RBNS enrichment (R) |
| --- | --- |
| GAAAGGAAGUGAAAGGUAAAUAGUCACCUACGGUCCUAGGAACCAUGCCUGCCACCUAACCACCUACCUGCCUUAGGCCAUAGCCUGGCCUGUGCCCCUAAACACUACAU | 0.941 |
| CAGUGAAUAACCUCUUGGAGUAUUUUUGGCUUUAUAUAAAACAAGGUUUUUAAUUGUAAAAUAUAAGUGCCAUUAGAAAAUGCACAGGGCAUAUCUUUGUUAAAGUAGAU | 0.46 |
| UCAGAGCCAAGCCAGGGUUGGAGAAAACUGCAUUCCUACGAGGGUAAAAGUAGCUGCCCUCUUUGAUCCUUUCUUACUAGGCUUCAUGUGGGAUGGGAGAGGAUGUCCCC | 0.528 |
| GAGCACAUCCAGGAUUAGAUAAGGUACUUAAGUACCUGCCGGCCCACUGUGCACUGCUUGUGAGAAAAUGGAUUAAAAACUAUUCUUACAUUUGUUUUGCCUUUCCUCCU | 0.256 |
| AAACAGUUCUUACUCCUGUGUUUUAGCAAAAAUUUAUCAAACAAAAUAAAUGGUACUUAUGUUUUCUAAGUCCUUCUACUGGUGUGUCUUUUUCCACGUAAUGGUAGAAA | 0.909 |
| CAAACUUGCUUGUGAUUGACUUGGUGCAAUACAGUUCCUUUCUAAACGUUUCUGGUUUAGAGAAUACUCAGCCAUCCUGGAAACUAGCAAUAUUUAUUUUGCCUCAUUUA | 0.316 |
| UGGAUCAAACAGGACCACCUCCCUCUGCGUCAGCCAUUUAAAAUUGGGGGAGGGAAGAGAUCCAGUGCAAGUGUGGGAAGAAACUGGAAUGACGAUUUUGAUUAGGCCAC | 1.72 |
| GGACAGUGUGGGCGCUCUCCCUACCUUGCCUCCUUUUUUCUUAAAGCAAAGUCACUUCUCCAUCACAACCAGAUUUGAGGCUGGUUUUGAUGGCUGGGUCCUUGGGCCUG | 0.218 |
| GCCCGGGCGAGGGCAGAGGACACUGGGAGCAAGGCUUAUGCCCCUGCUGCCCGUCCUGUGCUGGGGGCAUGCUGGGACCAGCCGCACCCAGGCCCCAAUGCUUGUGUGUG | 0.673 |
| GCCUUCCCAUAUUGGUGGCAGUGGUGCCACACUGAACAGAGUGGAAGACAUAUGCCAUGCAGCUACACCUACCGGCCCUGGGACGCCGGAGGACAGGGCAUUGUCCUCAG | 0.4 |
| AUGAACAUGGACUUAAAUGUUCUUUGAAAAAACCAAAGUUUUAAGAUUUGCUGUGUGAUGAAGUGACAGGGAGGGCCGGAGUCAGCAGGUGCCAGACUUUCUGUUCUGUC | 0.568 |
| AUAUUCAAAGUGCAAUUCGCGUCUAGAUUAUCCACACAAUUUCACUAAUUGAAAAAUAUCAAAUUUACUAUUAUAAUGUAAGAGAGAAAUAUAGGUCAUAACUUCGGCAC | 0.293 |

Study 2 — method: protein binding microarray; molecule type: double-stranded DNA, one strand shown; matrix: in vitro; tested at: not given; reference: not given; reading: higher = stronger binding
Target: Histone acetyltransferase KAT6A, winged helix 2, GST fusion (KAT6A, Homo sapiens, UniProt Q92794, residues 85-181)
Notes: 8-mer, flanks averaged, mean of 2 arrays, mostly near background
Target sequence (chain): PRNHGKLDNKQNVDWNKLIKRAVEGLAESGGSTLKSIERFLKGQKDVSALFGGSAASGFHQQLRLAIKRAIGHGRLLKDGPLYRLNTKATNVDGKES
| Sequence | E-score |
| --- | --- |
| GAATTGCA | -0.00496 |
| CGGTTCCA | -0.0681 |
| ACTACCAG | -0.263 |
| GTTCGAGA | 0.0095 |
| AGCAGCAT | 0.092 |
| CCCCGGGG | 0.197 |
| CCGTATAA | -0.0124 |
| ATTATACC | 0.0402 |
| CACTAATG | -0.102 |
| CATCAGAA | 0.0586 |
| CCGACCGC | 0.106 |
| TCACAGCA | 0.0247 |
| AACTCGTA | -0.00187 |
| CAGGAATC | 0.131 |
| ACACCACA | 0.0461 |
| GGGTCGGA | 0.114 |
| TAGGCTAA | -0.132 |
| GTCGGAGA | 0.0955 |
| GGGTTCAC | 0.108 |
| CTCGCAGC | 0.159 |
| AGATGAAG | -0.164 |
| CCCATGAC | -0.000415 |
| ACTTGCAA | 0.058 |
| ATGCTAGC | 0.0514 |
| ATACTGCC | 0.016 |

Study 3 — target: CCNA2, cyclin fold, Cln2 fusion (human); method: yeast growth competition, sequencing; matrix: yeast; notes: strong parent motif; reference: not given; reading: higher = stronger binding
Starting sequence: DTL docking peptide (human); PSSMRKICTYFHR
| Substitution | normalised enrichment score |
| --- | --- |
| PSSMRKIATYFHR [C8A] | 0.874 |
| PSSMRKICTYFAR [H12A] | 1.29 |
| ASSMRKICTYFHR [P1A] | 1.55 |
| PSSMRKICTYAHR [F11A] | 0.743 |
| PSSMRKICTYFHA [R13A] | 1.74 |
| PSSMRAICTYFHR [K6A] | 1.64 |
| PSSARKICTYFHR [M4A] | 1.65 |

Study 4 — method: RNA Bind-n-Seq; molecule type: RNA; matrix: in vitro; tested at: 200 nM; notes: whole 134-nt RNA, ends assumed; with: 150 mM LiCl; reference: input library; reading: higher = stronger binding; each molecule: 7-deaza-guanosine replaces G
Target: Fragile X messenger ribonucleoprotein 1, C-terminal low-complexity region (Fmr1, Mus musculus, UniProt P35922)
All sequences stand within: GGGAGUUCUACAGUCCGACGAUC … UGGAAUUCUCGGGUGUCAAGG
| Sequence | log2 enrichment |
| --- | --- |
| UUCCUCAAGUCCUGUGCUACACAUCGUAUGUACCGAAUCGGGUGGUGGUGGAAAGUAUUAUGUUACGCCGUUCGGAUCUGCACUUCCAGC | -0.0361 |
| ACCAUGAAAGUGGGCAUCUUUGGGAAGUGGGGCAAGGGGGGGAUAGGGAGGGGGGUAACACUUUGGGAACAGGUGGUCCCAGGUCGUUUC | 1.48 |
| CACAGACAACACGCACCCACACAGACACAGAGGGAAGGGGUGGGGAUGGGGACAGGGUGCACAGCAGGGCGGGGUAGGACCCCAGCCCCU | -0.972 |
| AGUGACCAUUUUAGUUAAAUUUUGUUCCUCUUCCCCCUUUUCACUUUCCUGGAAGAUCGAUGUCCCGAUCAGGAAGGUAGAGAGUUUUCC | 0.727 |
| UAACUUUAGAGGAGGAUCUGAUGGAUAUGGCAGUGGACGUGGAUUUGGGGAUGGCUAUAAUGGGUAUGGAGGACGACCUGGAGGUGGCAA | 0.0802 |
| AGUCCUGUGCUACACAUCGUAUGUACCGAAUCAAAUUUAAAUUUUUUUAAACCCAAAAAAGUAUUAUGUUACGCCGUUCGGAUCUGCACU | -1.54 |
| UCCUGUGCUACACAUCGUAUGUACCGAAUCGGGCCCCCCGGCCCCCCGGGGCCCCCCGGGAAAGUAUUAUGUUACGCCGUUCGGAUCUGC | -0.61 |
| AAGUCCUGUGCUACACAUCGUAUGUACCGAAUCGGGUUUUGGGGUUUUGGGUUUUGGAAAGUAUUAUGUUACGCCGUUCGGAUCUGCACU | -0.968 |
| UCCUCAAGUCCUGUGCUACACAUCGUAUGUACCGAAUCGGGGCGGCGGGCGGAAAGUAUUAUGUUACGCCGUUCGGAUCUGCACUUCCAG | -0.0798 |
| GCAGGAAGUAAAAACAAAUGGAAAUGCUUCGGAUAGUCGCAGGGGUGGGGGUUGCUAAGGAAAGGGUGGGAUGGGAGUGGGUAAAGAGUU | 1.4 |
| ACCAUGCAGGUGGGCAUCUUUGGGAAGUGGGGCAAGGGGGGGAUAGGGAGGGGGGUAACAGUUUGGGAACAGGUGGUCCCAGGUCGUUUC | 1.49 |

Study 5 — method: RNA Bind-n-Seq; molecule type: RNA; matrix: in vitro; tested at: not given; notes: RNA with constant flanks, ends assumed; reference: input RNA pool; reading: higher = stronger binding
Target: RING finger protein unkempt homolog, zinc fingers 1-6, GST-SBP tag (UNK, Homo sapiens, UniProt Q9C0B0, residues 30-357)
Chain of UniProt Q9C0B0 (30-357, looked up): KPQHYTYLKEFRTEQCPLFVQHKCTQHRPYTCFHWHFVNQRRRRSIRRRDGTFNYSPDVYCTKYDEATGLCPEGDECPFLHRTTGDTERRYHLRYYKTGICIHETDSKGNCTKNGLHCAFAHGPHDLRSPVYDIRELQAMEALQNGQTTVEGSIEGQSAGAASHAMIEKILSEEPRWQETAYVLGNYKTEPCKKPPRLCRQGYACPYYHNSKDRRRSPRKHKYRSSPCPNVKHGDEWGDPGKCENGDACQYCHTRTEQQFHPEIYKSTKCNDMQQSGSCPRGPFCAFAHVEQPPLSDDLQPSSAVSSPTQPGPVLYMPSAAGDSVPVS
All sequences stand within: GGGAGUUCUACAGUCCGACGAUC … CAACAGAGGAUUGAGCAUCA
| Sequence | bound/input enrichment [ratio] |
| --- | --- |
| UCCGAUAACUCCAGGUUUCCACUUGCAGUUGUAGAAGAGCCAAUUACUGUGGAAGUGGCUUUCCGAAACCCUUUAAAAGUUCCGCUUUUGCUGUCUGAUUUGUCAUUACUCUGGAAGUUU | 0.185 |
| CUGGGGCCAUUGGAGGCCCACUGUAGGUGGGAGGGAGCUGAUUUUGGGGUGGGGGGUGGGACCCGAGGGCAAUACUGAAGGGGUUAAACAGGUUUUUGCUCCUCAAGAAUUUGUUUGCCU | 0.431 |
| UGGGCACUGUAUCAGAUAGAUUACUUUUUAAAUGUAGAUAAAAUUUCAAAAAUGAAUGGCCCGUUUACGUGAUAGAUUAGGCUCUUACUACAUAUGUGUGUGUAUAUAUAUGUAUUUGAU | 10.9 |
| AACAAACUUAUAGUGAUGCGUUGGAAGGUUAAUCGAAACCAUCCUUACCCCUAUUUAAUGCCGUUUACCUUGAUUUUUAUCUGAUAUUAACAAUACCAUAUAGCUUGCUUUUUAUUAGCA | 6.58 |
| UUGGAAGGACCAGAGCCCAGUCAGCUCAAACCACUAGUUAUACAGGCUAUGCCCACCCUAACCGAAUUAAUGAAAGACCCCAGUGUAGUUGUUCGAGAUACAGCUGCAUGGACUGUAGGC | 0.505 |
| UUAUACCUUUUGGUUAUAAGCCCUGUGUUUGCCAUCCUUGAUCACUUGGCGGUGACUUUGCCGAGAUUGAAGUGGAGGAGUUAAGACACAUUGACUGUACCACAGACACACAUGUAUACU | 0.174 |
| CCUGCUCCCAAAUCAUGGGCCAGUAACAAGCAAGGUGGGCAAGGAGAUGGAAUCCAAGUGAACCGUCAGUUUCAGCAAGAAUUUCCCAGCCUGCAGGCAGCUGGGGAUCAGGAAAAAAAA | 0.156 |
| GUUAUAGGAGUUUACAAAAAAAUACCAACAUGUCAUCACCCACGCCAUUUAAGAUGAGAUCCGUUCAUUUGGACCUUAAAGGAGCGCCGCCAAAGGUUUCAUAUCUCUCUGAGGUUUUUC | 1.65 |
| UGAAGAUGAUGUAAAUAAGCAAAGUUCAGUUAGAAAGAACUCACAAAAACAAAUAAAAAACCGCAGUCUCCUUUCUUUUGACAGUGAAGAUGAAAAUGAGUAAAUAUGAAUAUUGUGGAC | 0.367 |
| CCUGGACUGACUGACCAGAAGACUGUCCCAACACCAACAGUACCUUCAGGUUCCUUCUCACACCGAGAGAAGCCCAGUAUUUUCUAUCAACAGGAGUGGCCAGAUAGUUAUGCAACUGAA | 0.446 |
| AAAAUCCUCCCUCAAAGGAUUCGGGAGCUGGUACCCGAGUCCCAGGCUUACAUGGACCUCCCCGCAUUUGAGAGGAAACUGGAUCAAACCAUCAUGCGGAAGCGGGUGGACAUCCAGGAG | 0.165 |

Repeated from above (study 4):
| Sequence | log2 enrichment |
| --- | --- |
| ACCAUGAAAGUGGGCAUCUUUGGGAAGUGGGGCAAGGGGGGGAUAGGGAGGGGGGUAACACUUUGGGAACAGGUGGUCCCAGGUCGUUUC | 1.48 |
| CACAGACAACACGCACCCACACAGACACAGAGGGAAGGGGUGGGGAUGGGGACAGGGUGCACAGCAGGGCGGGGUAGGACCCCAGCCCCU | -0.972 |
| AGUGACCAUUUUAGUUAAAUUUUGUUCCUCUUCCCCCUUUUCACUUUCCUGGAAGAUCGAUGUCCCGAUCAGGAAGGUAGAGAGUUUUCC | 0.727 |
| UAACUUUAGAGGAGGAUCUGAUGGAUAUGGCAGUGGACGUGGAUUUGGGGAUGGCUAUAAUGGGUAUGGAGGACGACCUGGAGGUGGCAA | 0.0802 |
| AGUCCUGUGCUACACAUCGUAUGUACCGAAUCAAAUUUAAAUUUUUUUAAACCCAAAAAAGUAUUAUGUUACGCCGUUCGGAUCUGCACU | -1.54 |
| UCCUGUGCUACACAUCGUAUGUACCGAAUCGGGCCCCCCGGCCCCCCGGGGCCCCCCGGGAAAGUAUUAUGUUACGCCGUUCGGAUCUGC | -0.61 |
| AAGUCCUGUGCUACACAUCGUAUGUACCGAAUCGGGUUUUGGGGUUUUGGGUUUUGGAAAGUAUUAUGUUACGCCGUUCGGAUCUGCACU | -0.968 |
| UCCUCAAGUCCUGUGCUACACAUCGUAUGUACCGAAUCGGGGCGGCGGGCGGAAAGUAUUAUGUUACGCCGUUCGGAUCUGCACUUCCAG | -0.0798 |
